# Measurements collected from several papers.
# Lines come from different studies, so protocols differ. “And” joins repeats or separate records; there may be more than shown. ± gives the spread as reported.
# Chain of UniProt P07947 (whole entry, looked up): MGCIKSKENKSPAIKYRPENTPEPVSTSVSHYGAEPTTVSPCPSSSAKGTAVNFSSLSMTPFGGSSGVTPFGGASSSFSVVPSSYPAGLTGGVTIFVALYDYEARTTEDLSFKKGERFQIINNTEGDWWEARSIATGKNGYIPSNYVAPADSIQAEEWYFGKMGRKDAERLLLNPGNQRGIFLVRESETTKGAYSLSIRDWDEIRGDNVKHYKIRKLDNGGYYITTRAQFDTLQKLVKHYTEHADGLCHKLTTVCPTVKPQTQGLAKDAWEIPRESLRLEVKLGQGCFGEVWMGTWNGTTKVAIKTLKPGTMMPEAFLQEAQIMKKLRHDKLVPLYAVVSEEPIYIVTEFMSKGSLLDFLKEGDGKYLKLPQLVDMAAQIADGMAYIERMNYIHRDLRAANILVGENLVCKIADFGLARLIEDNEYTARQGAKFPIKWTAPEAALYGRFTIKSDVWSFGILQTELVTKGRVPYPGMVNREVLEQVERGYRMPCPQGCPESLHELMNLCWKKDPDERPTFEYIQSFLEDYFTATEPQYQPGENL
# Chain of UniProt P21709 (whole entry, looked up): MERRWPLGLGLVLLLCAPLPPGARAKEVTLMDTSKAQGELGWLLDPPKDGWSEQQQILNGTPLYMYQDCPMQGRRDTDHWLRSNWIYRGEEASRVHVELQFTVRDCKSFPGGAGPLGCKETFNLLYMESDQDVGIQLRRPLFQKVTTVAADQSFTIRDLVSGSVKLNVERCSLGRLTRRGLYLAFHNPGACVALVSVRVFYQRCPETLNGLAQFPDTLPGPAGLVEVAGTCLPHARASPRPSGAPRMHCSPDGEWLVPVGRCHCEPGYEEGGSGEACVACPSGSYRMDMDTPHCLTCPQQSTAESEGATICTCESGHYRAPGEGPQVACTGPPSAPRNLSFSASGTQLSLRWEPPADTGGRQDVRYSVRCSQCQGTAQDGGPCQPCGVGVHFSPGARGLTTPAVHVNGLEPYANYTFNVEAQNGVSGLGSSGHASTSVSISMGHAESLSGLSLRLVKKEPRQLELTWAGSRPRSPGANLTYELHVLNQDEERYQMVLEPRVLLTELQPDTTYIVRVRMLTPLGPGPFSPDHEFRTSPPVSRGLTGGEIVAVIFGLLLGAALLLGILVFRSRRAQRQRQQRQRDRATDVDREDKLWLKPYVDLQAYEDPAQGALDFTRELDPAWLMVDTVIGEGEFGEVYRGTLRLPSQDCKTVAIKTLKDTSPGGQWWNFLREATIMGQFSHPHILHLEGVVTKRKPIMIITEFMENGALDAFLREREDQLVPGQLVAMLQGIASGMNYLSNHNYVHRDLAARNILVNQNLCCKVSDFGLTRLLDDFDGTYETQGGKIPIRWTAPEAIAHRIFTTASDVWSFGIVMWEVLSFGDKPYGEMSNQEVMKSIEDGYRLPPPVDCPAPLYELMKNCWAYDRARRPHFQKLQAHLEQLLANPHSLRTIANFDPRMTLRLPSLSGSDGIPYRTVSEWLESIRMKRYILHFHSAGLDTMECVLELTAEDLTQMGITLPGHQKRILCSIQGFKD
# Chain of UniProt P22455 (whole entry, unmodified, looked up): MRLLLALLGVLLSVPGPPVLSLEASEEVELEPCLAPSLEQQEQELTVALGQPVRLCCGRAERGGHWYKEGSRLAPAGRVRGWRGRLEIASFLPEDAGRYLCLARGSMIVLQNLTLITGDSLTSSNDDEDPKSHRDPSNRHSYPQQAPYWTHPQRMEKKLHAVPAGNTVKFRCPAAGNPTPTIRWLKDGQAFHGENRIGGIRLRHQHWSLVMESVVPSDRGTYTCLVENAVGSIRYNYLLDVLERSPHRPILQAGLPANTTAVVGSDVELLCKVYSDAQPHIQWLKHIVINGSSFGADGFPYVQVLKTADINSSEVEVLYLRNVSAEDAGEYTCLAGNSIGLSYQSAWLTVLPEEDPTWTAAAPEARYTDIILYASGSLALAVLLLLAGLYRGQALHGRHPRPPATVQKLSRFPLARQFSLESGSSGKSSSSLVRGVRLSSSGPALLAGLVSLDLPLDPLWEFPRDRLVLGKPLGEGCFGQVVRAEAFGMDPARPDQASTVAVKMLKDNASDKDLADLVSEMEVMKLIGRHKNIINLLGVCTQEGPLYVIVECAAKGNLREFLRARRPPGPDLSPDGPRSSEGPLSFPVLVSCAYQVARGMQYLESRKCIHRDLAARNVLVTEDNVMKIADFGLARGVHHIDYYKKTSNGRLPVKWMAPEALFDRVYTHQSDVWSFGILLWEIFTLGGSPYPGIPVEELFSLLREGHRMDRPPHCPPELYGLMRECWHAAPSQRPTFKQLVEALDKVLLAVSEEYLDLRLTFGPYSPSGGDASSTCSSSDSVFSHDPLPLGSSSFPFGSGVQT
SMILES,target or system,test,system,setting,how to read,quantity,result
[2H]C([2H])([18F])[C@]([2H])(N)C(=O)O,,PET,"athymic nude mice, U-87 MG","dose not given, 30 min post-injection",relative to: tumour over muscle,tumour-to-muscle ratio,1.74 ± 0.43
COc1cnc2cccc(N3CCc4c(cc(Cn5ccnc5)cc4-c4cn(C)nc4C(F)(F)F)C3=O)c2c1,,,"BALB/c nude mice, MV4-11 xenograft","intraperitoneal, 75 mg/kg, day 14",,body weight,21.4 g and 22.4 g and 22 g and 23.7 g
Cc1nc2cccc(OCC(C)(C)C(=O)NC(C)C)c2c(N)c1C(=O)[O-].[Na+],Escherichia coli,"reverse mutation, plate incorporation",WP2 uvrA,"0.80 mg/plate, without S9",,revertant colonies,29 ± 4 colonies/plate
COc1ccccc1-c1n[nH]c2nc(NC3CCN(C(=O)Cc4ccc(F)cc4F)CC3)ncc12,,"bead binding, competition bead pull-down, item: LINJ.30.0080",Leishmania donovani axenic amastigote extract,10 µM,relative to: vehicle,relative abundance,0.11
O=C(c1cc(Cc2n[nH]c(=O)c3ccccc23)ccc1F)N1CC(CNC2CC2)C1,,,"Wistar Han rat, male, blood","oral, 60 mg/kg daily, 4 weeks",,haemoglobin,11.4 ± 1.5 g/dL
CC(C)(C)C(=O)OCOP(=O)(OCOC(=O)C(C)(C)C)C1CCCN(O)C1=O (stereo not shown),A549,,,,,Log10GI50,-6.2 log M
CSCC[C@@H]1NC(=O)[C@H](C(C)C)NC(=O)[C@H](CCCNC(=N)N)NC(=O)[C@@H]2CCCN2C(=O)CNC(=O)[C@@H](NC(=O)CNC(=O)[C@H](CO)NC(=O)CNC(=O)[C@H](CO)NC(=S)Nc2ccc(C[C@H]3CN(CC(=O)O)CCN(CC(=O)O)CCN3CC(=O)O)cc2)CSSC[C@@H](C(N)=O)NC(=O)[C@@H]2CCCN2C(=O)CNC(=O)[C@H](CCC(=O)O)NC(=O)[C@H](CC(=O)O)NC(=O)[C@H](CC(=O)O)NC(=O)CNC(=O)[C@H](CC(C)C)NC(=O)[C@H](Cc2c[nH]cn2)NC(=O)[C@H](CC(C)C)NC(=O)CNC(=O)[C@H](Cc2c[nH]cn2)NC1=O [copper-64 labelled],,dynamic PET,"CD rat, myocardial infarction model, fibrotic infarct myocardium","intravenous, 18.5 MBq, 5 to 60 min",,half-life,21.5 ± 1.4 min
Cc1ccc(NS(=O)(=O)c2c(C(=O)N3CCCCCC3)c(C)n(C)c2C)c(Cl)c1,human cells,,,"1.235 µM, 60 h",,viability,97.6%
C=C/C=C/C[C@@H](C)[C@@H](O)[C@H]1C(=O)N[C@@H](CC)C(=O)N(C)CC(=O)N(C)[C@@H](CC(C)C)C(=O)N[C@@H](C(C)C)C(=O)N(C)[C@@H](CC(C)C)C(=O)N[C@@H](C)C(=O)N[C@H](C)C(=O)N(C)[C@@H](CC(C)C)C(=O)N(C)[C@@H](CC(C)C)C(=O)N(C)[C@@H](C(C)C)C(=O)N1C,,,"Wistar Kyoto rat, male, plasma","ip, 0.5 mg/kg/day, day 28, at sacrifice",,plasma urea level,5.2 ± 0.3 mmol/L
COc1ccc(-n2cc(C(=O)N3C[C@]4(OC(=O)c5ccccc5NC(C)=O)CC[C@H](OC)[C@@]56[C@@H]4C[C@@H]([C@@H]35)[C@@]3(O)C[C@H](OC)[C@H]4C[C@@H]6[C@]3(O)[C@H]4OC)nn2)cc1,,,"Sprague-Dawley rat, plasma","intravenous, 2 mg/kg, 0.083 h",,plasma concentration,120 ng/mL
CC(C)[C@H]1NC(=O)C[C@H]2/C=C/CCSSC[C@@H](NC1=O)C(=O)N[C@H](Cc1cccc3ccccc13)C(=O)NCC(=O)O2,"Fibroblast growth factor receptor 4 (FGFR4, Homo sapiens, UniProt P22455, V550E)","enzyme activity, inhibitor",,10 µM,,inhibition,-1.3%
C[C@]12COc3ccc(OCc4ccccc4)cc3[C@H]1CCN2,,lipid PAMPA,artificial lipid membrane,"10 µM, 16 h",,recovery,3.5%
Cc1ccccc1-c1ccc(-c2nc(-c3ccc(CN(C)CCCC(=O)O)c([18F])c3)no2)cc1C(F)(F)F,,,"rat, brain",30 min,,tracer uptake,0.37 %ID/g
CN(C)[C@H]1C[C@@]23CC[C@@]4(O2)C(=CC[C@]2(C)[C@@H](c5ccc6ccncc6c5)CC[C@H]24)C=C3[C@@H](O)[C@@H]1O,"Ephrin type-A receptor 1 (EPHA1, Homo sapiens, UniProt P21709)","ATP probe labelling, inhibitor, KiNativ profiling",,1 µM,,inhibition,5.8%
CCCC[C@H]1C(=O)N(C)[C@@H](CCCC)C(=O)N[C@@H](CCCNC(=O)CN2CCN(CC(=O)O)CCN(CC(=O)O)CCN(CC(=O)O)CC2)C(=O)N[C@H](C(=O)NCC(N)=O)CSCC(=O)N[C@@H](Cc2ccc(O)cc2)C(=O)N(C)[C@@H](C)C(=O)N[C@@H](CC(N)=O)C(=O)N2CCC[C@H]2C(=O)N[C@@H](Cc2c[nH]cn2)C(=O)N[C@@H](CC(C)C)C(=O)N(C)CC(=O)N[C@@H](Cc2c[nH]c3ccccc23)C(=O)N[C@@H](CO)C(=O)N[C@@H](Cc2c[nH]c3ccccc23)C(=O)N1C [gallium-68 labelled],,radio-HPLC,fetal bovine serum,"0 min, 37 °C",,radiochemical purity,98.6%
CN1Cc2cc(Cl)ccc2-n2c(nnc2C2CCN(c3cccc([18F])n3)CC2)C1,,PET two-tissue compartment model,"rhesus monkey, amygdala","intravenous, dose not given, 70 min scan, baseline scan",,total volume of distribution,1.08 ± 0.37 mL/cm3
CN1CCCCC1C(=O)NC(Cc1ccc(-c2ccccc2)cc1)B(O)O (stereo not shown),,,male Sprague-Dawley rats,"oral, 1 mg/kg",,oral bioavailability,58%
CSCC[C@H](N)C(=O)N[C@@H](C)C(=O)N[C@@H](Cc1c[nH]c2ccccc12)C(=O)N[C@@H](Cc1c[nH]cn1)C(=O)N[C@@H](CC(=O)O)C(=O)N[C@@H](CC(=O)O)C(=O)N[C@@H](CCC(=O)O)C(=O)N[C@@H](CCC(=O)O)C(=O)N[C@@H](Cc1ccccc1)C(=O)N[C@@H](C)C(=O)N[C@@H](CCCNC(=N)N)C(=O)N[C@@H](CCCNC(=N)N)C(=O)N[C@@H](CCCNC(=N)N)C(=O)N[C@@H](CCCNC(=N)N)C(=O)NCCCCCC(=O)NCCCCC(NC(=O)CCCCCNC(=O)[C@H](CCCNC(=N)N)NC(=O)[C@H](CCCNC(=N)N)NC(=O)[C@H](CCCNC(=N)N)NC(=O)[C@H](CCCNC(=N)N)NC(=O)[C@H](C)NC(=O)[C@H](Cc1ccccc1)NC(=O)[C@H](CCC(=O)O)NC(=O)[C@H](CCC(=O)O)NC(=O)[C@H](CC(=O)O)NC(=O)[C@H](CC(=O)O)NC(=O)[C@H](Cc1c[nH]cn1)NC(=O)[C@H](Cc1c[nH]c2ccccc12)NC(=O)[C@H](C)NC(=O)[C@@H](N)CCSC)C(=O)NCCCCC(NC(=O)C(CCCCNC(=O)CCCCCNC(=O)[C@H](CCCNC(=N)N)NC(=O)[C@H](CCCNC(=N)N)NC(=O)[C@H](CCCNC(=N)N)NC(=O)[C@H](CCCNC(=N)N)NC(=O)[C@H](C)NC(=O)[C@H](Cc1ccccc1)NC(=O)[C@H](CCC(=O)O)NC(=O)[C@H](CCC(=O)O)NC(=O)[C@H](CC(=O)O)NC(=O)[C@H](CC(=O)O)NC(=O)[C@H](Cc1c[nH]cn1)NC(=O)[C@H](Cc1c[nH]c2ccccc12)NC(=O)[C@H](C)NC(=O)[C@@H](N)CCSC)NC(=O)CCCCCNC(=O)[C@H](CCCNC(=N)N)NC(=O)[C@H](CCCNC(=N)N)NC(=O)[C@H](CCCNC(=N)N)NC(=O)[C@H](CCCNC(=N)N)NC(=O)[C@H](C)NC(=O)[C@H](Cc1ccccc1)NC(=O)[C@H](CCC(=O)O)NC(=O)[C@H](CCC(=O)O)NC(=O)[C@H](CC(=O)O)NC(=O)[C@H](CC(=O)O)NC(=O)[C@H](Cc1c[nH]cn1)NC(=O)[C@H](Cc1c[nH]c2ccccc12)NC(=O)[C@H](C)NC(=O)[C@@H](N)CCSC)C(N)=O (stereo partly shown),,,"C57BL/6 mouse female, heart","dose not given, 6 h",relative to: total,tissue distribution,0.92% and 0.85% and 0.74%
C#Cc1c(F)ccc2cc(O)cc(-c3ncc4c(N5CC6CCC(C5)N6C(=O)OC(C)OC(=O)CCCCC)nc(OC[C@@]56CCCN5C[C@H](F)C6)nc4c3F)c12 (stereo partly shown),,chemical stability,simulated intestinal fluid,"1 µM, 30 min",,compound remaining,56.1%
CC(C)[C@@H]1NC(=O)CNC(=O)[C@H](CC(N)=O)NC(=O)[C@H](CCCNC(=N)N)NC(=O)[C@H](Cc2ccc(O)cc2)NC(=O)[C@H](C(C)C)NC(=O)[C@@H](NC(=O)[C@@H](NC(=O)[C@H](CC(N)=O)NC(=O)[C@H](Cc2c[nH]c3ccccc23)NC(=O)[C@H](C)NC(=O)[C@H](Cc2ccccc2)NC(=O)CNC(=O)[C@H](CCCCN)NC(=O)[C@H](Cc2ccccc2)NC(=O)[C@H](Cc2ccccc2)NC(=O)[C@H](CCCCN)NC(=O)OCC2c3ccccc3-c3ccccc32)C(C)C)CSSC[C@@H](C(=O)N[C@@H](Cc2c[nH]cn2)C(=O)N[C@@H](CCCNC(=N)N)C(=O)N[C@@H](CCCNC(=N)N)C(=O)N[C@@H](C)C(=O)N[C@@H](CC(N)=O)C(N)=O)NC(=O)[C@H](C(C)C)NC(=O)[C@H](CCCNC(=N)N)NC1=O,,,"ICR mice, serum","intraperitoneal, 10 mg/kg, day 5",,albumin,33.4 ± 0.92 g/L
CC[C@H](C)[C@H](NC(=O)[C@H](CCCCN)NC(=O)CNC(=O)[C@H](CC(C)C)NC(=O)[C@H](Cc1ccccc1)NC(=O)[C@H](CCCCN)NC(=O)[C@H](CO)NC(=O)[C@H](Cc1ccccc1)NC(=O)[C@H](Cc1c[nH]c2ccccc12)NC(=O)[C@H](CCC(N)=O)NC(=O)[C@@H](NC(=O)[C@H](Cc1ccccc1)NC(=O)CCCCCNC(=O)CN1CCN(CC(=O)O)CCN(CC(=O)O)CCN(CC(=O)O)CC1)C(C)C)C(=O)N[C@@H](CCC(=O)O)C(=O)N1CCC[C@H]1C(=O)N[C@@H](CC(=O)O)C(=O)N[C@H](C(=O)N[C@@H](CO)C(=O)N[C@@H](CCC(N)=O)C(=O)N[C@H](C(=O)N[C@@H](CCC(N)=O)C(=O)N[C@@H](CC(=O)O)C(=O)N1CCC[C@H]1C(=O)N[C@@H](CC(N)=O)C(=O)N[C@@H](CC(=O)O)C(=O)N[C@@H](CCC(N)=O)C(=O)N[C@@H](Cc1ccc(O)cc1)C(=O)N[C@@H](CCC(=O)O)C(=O)N1CCC[C@H]1C(=O)N[C@@H](Cc1ccccc1)C(=O)O)C(C)C)C(C)C [copper-64 labelled],,,"C57BL/6 mice, male, tumour-free, stomach",24 h,,tissue uptake,3.27 ± 0.2 %ID/g
O=C(CN1CCN(CC(=O)NCP(=O)([O-])[O-])CCN(CC(=O)NCP(=O)([O-])[O-])CCN(CC(=O)NCP(=O)([O-])[O-])CC1)NCP(=O)([O-])[O-].[Gd+3],,,"Sprague-Dawley rats, blood","intravenous, 35 µmol/kg, two-compartment model, together with: GdDTPA 68 µmol/kg co-injected",,elimination half-life,12.8 min
CS(C)(=O)=Nc1ccc(-c2ccc(-c3nc4cc(O[C@@H]5CO[C@H]6[C@@H]5OC[C@H]6O)[nH]c4cc3F)cc2)cc1,"Tyrosine-protein kinase Yes (YES1, Homo sapiens, UniProt P07947)","enzyme activity, inhibitor",,10 µM,,inhibition,5%
O=C1NC2(CC2)COc2ncc(F)cc2[C@H]2COCCN2c2ccn3ncc1c3n2,,,"Sprague-Dawley rat, male, serum","oral, 20 mg/kg/day, 4 weeks daily, end of treatment",,creatinine,30 ± 4.3 µmol/L
N#[11C]c1ccc(-c2csc(NN=C3CCCC3)n2)cc1,,,"C57BL/6 mice, male, thymus","intravenous, 3 MBq, 30 min",,radioactivity uptake,1.51 ± 0.53 %ID/g
